Published values of several laboratories.
Several values in a cell are separate wells, animals, samples, runs or records. ± marks the error that the study gave.

| Compound | assay | system | conditions | scale | endpoint | value |
| --- | --- | --- | --- | --- | --- | --- |
| CC(=O)Oc1ccccc1C(=O)O |  | male Hartley guinea pig, anaesthetized | intravenous, 1 mg/kg, baseline before infusion |  | QTc interval | 308 ± 0.3 ms |
| Cc1c(C(=O)O)ccc2c3n(nc12)[C@@H]1[C@H](C3)N(CC2CC2)[C@@]2(C(=O)Nc3cc(Cl)ccc32)[C@H]1c1cccc(Cl)c1F |  | female BALB/c nude mice, SJSA-1 xenograft, plasma | oral, 2 mg/kg once daily |  | AUC(0-t) | 37.5 µM·h and 28.6 µM·h and 31.8 µM·h and 29.3 µM·h |
| CC(C)n1c(Nc2cccnc2)nc2cnc(Nc3ccc(N4CCN(C)CC4)cc3)nc21 | item: hemoglobin increased | healthy male subjects | oral, 100 mg, study, together with: itraconazole |  | subjects with adverse event | 0% |
| CCCCc1ccc(-c2ccc(C#N)cc2)cc1 | item: compound | human pregnant women, male fetuses, cord serum | dose not given, paired maternal-cord samples, mean |  | concentration | 0.24 ng/mL |
| Cl.[2H]C([2H])([2H])CC(=O)c1cnc(NC(=O)C2CC2)cc1Nc1cccc(-c2ncn(C([2H])([2H])[2H])n2)c1OC |  | human, plasma | oral, 30 mg twice daily, day 14, nonfasted, tablet, geometric mean |  | Ctrough | 54.2 ng/mL |
| O=[N+]([O-])c1ccccc1CCNS(=O)(=O)c1cccc(Cl)c1O | colloidal aggregate formation, dynamic light scattering | 50 mM potassium phosphate buffer | 200 µM, pH 7.0, 1% DMSO | higher = more aggregation | DLS scattered light intensity | 2.8e+06 counts/s |
| C[C@H]1Oc2cc(cnc2N)-c2c(nn(C)c2C#N)CN(C)C(=O)c2ccc(F)cc21 |  | human patients, plasma | oral, cycle 2 day 1, geometric mean, together with: avelumab |  | Cmax, dose-normalized | 6 ng/mL/mg |
| O=C(Nc1ccc(NS(=O)(=O)c2cccc(Cl)c2O)cn1)C1CC1 | colloidal aggregate formation, dynamic light scattering | 50 mM potassium phosphate buffer | 200 µM, pH 7.0, 1% DMSO | higher = more aggregation | DLS scattered light intensity | 319000 counts/s |
| CCN1/C(=C/C(C)=O)Sc2ccc(F)cc21 |  | cynomolgus monkey | oral, 10 mg/kg, 24 h post-dose | baseline: pre-dose | heart rate change | 91.1 ± 6.5% |
| NC1(C(=O)N[C@@H](CCO)c2ccc(Cl)cc2)CCN(c2nc[nH]c3nccc2-3)CC1 |  | metastatic CRPC patients | 480 mg b.i.d., any grade, treatment-related, together with: enzalutamide 160 mg daily |  | incidence of Leukopenia | 20% |
| CNCCOC12CC3(C)CC(C)(CC(Cn4ncc(-c5ccc(N6CCc7cccc(C(=O)Nc8nc9ccccc9s8)c7C6)nc5C(=O)O)c4C)(C3)C1)C2 |  | beagle dog, male, anaesthetised | intravenous bolus, 0.03 mg/kg, 120 min | baseline: baseline | dP/dt at 50 change | -10% |
| COc1cc(C(=O)N2CCC3(CC2)CC(=O)c2c(cnn2C(C)C)C3)cc(-c2ccc(C(=O)O)cc2)n1 | item: total cholesterol | human, fasting serum | 100 mg every 12 h, day 13, adjusted geometric mean | baseline: baseline | percentage change from baseline | -11.9% |
| N#Cc1ccc2c(c1)[C@H]1CCCN(C(=O)c3ccc4[nH]cnc4c3)[C@H]1C2 |  | human | 360 mg, end of trial |  | median ACTH level | 4.8 pmol/L |
| COC1=C(OC)[C@H](O)[C@H](C/C=C(\C)CC/C=C(\C)CCC=C(C)C)[C@@H](C)C1=O |  | Balb/c mice male, whole blood | oral, 50 mg/kg, 1 h |  | blood concentration | 54.8 nM |
| CCC1CC1(NS(=O)(=O)c1cccc(Cl)c1O)c1ccc(Cl)cc1 (stereo not drawn) | colloidal aggregate formation, dynamic light scattering | 50 mM potassium phosphate buffer | 200 µM, pH 7.0, 1% DMSO | higher = more aggregation | DLS scattered light intensity | 644000 counts/s |
| CCOc1c([C@H](C)n2nc(C)c3c(N)ncnc32)cc(Cl)c(F)c1[C@@H]1CNC(=O)C1 | item: QTcF above 500 ms | previously treated B-cell malignancy | oral, 10 mg once daily, baseline QTcF ≤450 ms |  | ECG observations | 0% |
| CC[C@H](C)[C@H](NC(=O)[C@H](Cc1ccccc1)NC(=O)[C@H](CCC(=O)O)NC(=O)[C@H](CCCCNC(=O)COCCOCCNC(=O)COCCOCCNC(=O)CC[C@H](NC(=O)CCCCCCCCCCCCCCCCC(=O)O)C(=O)O)NC(=O)[C@H](C)NC(=O)[C@H](C)NC(=O)[C@H](CCC(N)=O)NC(=O)CNC(=O)[C@H](CCC(=O)O)NC(=O)[C@H](CC(C)C)NC(=O)[C@H](Cc1ccc(O)cc1)NC(=O)[C@H](CO)NC(=O)[C@H](CO)NC(=O)[C@@H](NC(=O)[C@H](CC(=O)O)NC(=O)[C@H](CO)NC(=O)[C@@H](NC(=O)[C@H](Cc1ccccc1)NC(=O)[C@@H](NC(=O)CNC(=O)[C@H](CCC(=O)O)NC(=O)C(C)(C)NC(=O)[C@@H](N)Cc1cnc[nH]1)[C@@H](C)O)[C@@H](C)O)C(C)C)C(=O)N[C@@H](C)C(=O)N[C@@H](Cc1c[nH]c2ccccc12)C(=O)N[C@@H](CC(C)C)C(=O)N[C@H](C(=O)N[C@@H](CCCNC(=N)N)C(=O)NCC(=O)N[C@@H](CCCNC(=N)N)C(=O)NCC(=O)O)C(C)C | hypoglycaemic clamp | type 2 diabetes patients | dose not given, nadir plasma glucose 5.5 mmol/L |  | diastolic blood pressure change | -9.4 mmHg |
| CC(C)(Sc1ccncc1-c1ccc(C#N)c2ccccc12)C(=O)O |  | human, urine | oral, 15 mg, together with: febuxostat 0 mg |  | fraction excreted in urine (0-24 h) | 1.8% |
| [O]=[Co].[O]=[Co][O][Co]=[O] |  | Crl:CD(SD) rat female, blood | oral, 73.4 mg Co/kg/day, 90 days |  | haemoglobin | 9.51 mmol/L |
| CC(Cc1c(Cl)cccc1Cl)NS(=O)(=O)c1cnn(C)c1C(=O)O (stereo not drawn) | colloidal aggregate formation, dynamic light scattering | 50 mM potassium phosphate buffer | 200 µM, pH 7.0, 1% DMSO | higher = more aggregation | DLS scattered light intensity | 1.38e+06 counts/s |
| Nc1c(CC(=O)O)cccc1C(=O)c1ccc(Br)cc1 |  | cynomolgus monkey, suspended hepatocytes | dose not given | unbound, scaled in vitro | active uptake clearance | 520 mL/min/kg |
| CNCc1ccc(-c2[nH]c3cc(F)cc4c3c2CCNC4=O)cc1 | item: Dyspnea | human patients | oral, 600 mg twice daily, grade 3 |  | patients with adverse event | 0% |
| COc1ccc(-c2c(-c3ccc(C#N)c(F)c3)nc(N3CCC(N)CC3)n(C)c2=O)cc1F |  | neuroendocrine neoplasm patients | oral, 60 mg, dose expansion |  | discontinuation due to AE | 0% |

| Compound | assay | system | conditions | scale | endpoint | value |
| --- | --- | --- | --- | --- | --- | --- |
| CCn1ncc2c1-c1cnc(N)c(c1)O[C@H](C)c1cc(F)ccc1-c1nn(C)nc1C2 |  | female athymic nude mice, sample A PDX | oral, 0.04 mg/kg once daily for 1 days, 12 h |  | unbound plasma trough concentration | 0.6 ± 0.2 nM |
| COc1cccc(OC)c1-c1cc(C(=O)NC2(C(=O)O)C3CC4CC(C3)CC2C4)nn1-c1ccc(C(=O)N(C)CCCN(C)CCCN(C)C(=O)CN2CCN(CC(=O)[O-])CCN(CC(=O)[O-])CCN(CC(=O)[O-])CC2)cc1C(C)C.[177Lu+3] (stereo not drawn) |  | mouse HT-29 xenograft, large intestine | 72 h post injection, biodistribution |  | tissue uptake | 0.1 %ID/g |
| Cc1nc(O)n2ncc(Cl)c2n1 | haemolysis | sheep erythrocytes | 1 h, pH 7.5 |  | HC50 | > 128 µg/mL |
| CN1C[C@H](COc2nccc3c(NCc4ccco4)cc(Cl)nc23)OC1=O |  | rabbit NZW female, isolated Langendorff heart | 3 µM, 15 min |  | QTc interval | 259 ms |
| Cc1cnc(N2CC3(CCOCC3)C2)c(C(=O)Nc2ccc(C(=O)N3CCc4cc(C(=O)Nc5c(C)cccc5F)sc4-c4ccccc43)cc2)c1 |  | human, nasal epithelial lining fluid | inhaled, 5 mg twice daily, 108 h |  | concentration | 11000 ng/mL |
| COc1ccc2c(c1)CN(C(=O)CCN1CCC(Cc3ccccc3)CC1)CC[S@@+]2[O-] |  | healthy male volunteers | intravenous, 0.6 mg/kg, post-dose |  | QTcF | 421 ± 20.1 ms |
| C[C@@H]1CN(c2c(F)c(N)c3c(=O)c(C(=O)O)cn(C4CC4)c3c2F)C[C@H](C)N1 |  | male Hartley guinea pig, anaesthetized | intravenous infusion, 10 mg/kg, 10 min infusion, post-infusion |  | QTc interval | 366 ± 0.6 ms |
| COc1ccc(C(=O)O)cc1NC(=O)/C=C/c1ccc(-c2ccccc2C)cc1 | haemolysis | sheep erythrocytes | 1 h, pH 7.5 |  | HC50 | > 128 µg/mL |
| FC(F)(F)c1ccc(CNc2ccc(Cc3c[nH]c4ncc(Cl)cc34)cn2)cn1 | item: mucosal inflammation | human, advanced solid tumours, all patients | oral, 1000 mg/day, any grade |  | treatment-related adverse events | 8% |
| CNC(=O)c1cccc(-c2ccc([C@@H](O)[C@H]3O[C@H](CO)[C@@H](O)[C@H](O)[C@@H]3O)c(C)c2)c1 |  | male Sprague-Dawley rat, plasma | oral, 10 mg/kg, group mean |  | terminal half-life | 3.53 h |
| C[C@H](CS)C(=O)N1CCC[C@H]1C(=O)O |  | male Hartley guinea pig, anaesthetized | intravenous, 3 mg/kg, baseline before infusion |  | QTc interval | 348 ± 0.9 ms |
| CCC(C)n1ncn(-c2ccc(N3CCN(c4ccc(OCC5COC(Cn6cncn6)(c6ccc(Cl)cc6Cl)O5)cc4)CC3)cc2)c1=O (stereo not drawn) |  | human, plasma | oral, dose not given, day 14 predose, geometric mean |  | trough plasma concentration | 128 ng/mL |
| C=CC(=O)NC1CCN(c2ncc3ncnc(Nc4ccc(Oc5ccc6c(c5)ncn6C)c(C)c4)c3n2)CC1 | item: total radioactivity | healthy male human, whole blood and plasma | oral, 60 mg, 72 h, geometric mean |  | blood-to-plasma ratio | 2.07 |
| CNC(=O)c1ccc(-c2cnc3ncc(Cc4ccc5ncccc5c4)n3n2)cc1F | item: Dyspnea, all grades | cancer patients | oral, dose not given, dose escalation, any causality |  | patients with adverse event | 13% |
| CCN1CCN(C(=O)N[C@@H](C(=O)N[C@@H]2C(=O)N3[C@@H]2SC(C)(C)[C@@H]3C(=O)O)c2ccccc2)C(=O)C1=O |  | human whole blood | concentration not given, 24 h, 4 °C |  | deviation from nominal concentration | -4.9% |
| Cc1ccc(Sc2ccccc2N2CCNCC2)c(C)c1 |  | healthy adult men | oral, 2.5 mg single dose, treatment-emergent adverse events |  | pyrexia incidence | 0% |
| O=c1[nH]c(=O)n([C@@H]2O[C@H](CO)[C@@H](O)[C@@H]2F)cc1CCCC[18F] |  | nude mice, RG2 tumour, blood | intravenous, dose not given, 2 h, co-injection |  | blood concentration | 0.11 ± 0.02 %ID/g |
| C[C@@H](Nc1cc(F)cc(F)c1)c1cc(C(=O)N(C)C)cc2c(=O)cc(N3CCOCC3)oc12 |  | human | oral, 120 mg twice daily, vistusertib alone, geometric LSM |  | AUC(0-12) | 4410 ng·h/mL |
| COCCOc1cnc2ccn([C@H](C)c3nnc4c(F)cc(-c5cnn(C)c5)cn34)c(=O)c2c1 |  | patients, plasma | oral, 50 mg once daily, day 28 24 h postdose |  | Ctrough | 50 ng/mL |
| CCN(Cc1ccc(F)cc1)c1ccc(CO)c(Cl)c1 |  | F344 rat, male, serum | oral, 100 mg/kg/day, 2 days |  | GGT | 4 U/L and 3 U/L and 0 U/L |
| O=C(COc1ccc(Cl)cc1)NC12CC(c3nnc([C@H]4C[C@@H](OC(F)(F)F)C4)o3)(C1)C2 |  | human both sexes | oral, 45 mg once daily, 14 days |  | participants with headache | 66.7% |
| COc1ccnc(C(N)=O)c1O | soil adsorption | clay loam soil | pH 7.2, organic carbon 4.4 % |  | Freundlich coefficient KF | 17.4 mL/g |

A few entries again:
| Compound | assay | system | conditions | scale | endpoint | value |
| --- | --- | --- | --- | --- | --- | --- |
| O=c1[nH]c(=O)n([C@@H]2O[C@H](CO)[C@@H](O)[C@@H]2F)cc1CCCC[18F] |  | nude mice, RG2 tumour, blood | intravenous, dose not given, 2 h, co-injection |  | blood concentration | 0.11 ± 0.02 %ID/g |
| C[C@@H](Nc1cc(F)cc(F)c1)c1cc(C(=O)N(C)C)cc2c(=O)cc(N3CCOCC3)oc12 |  | human | oral, 120 mg twice daily, vistusertib alone, geometric LSM |  | AUC(0-12) | 4410 ng·h/mL |
| COCCOc1cnc2ccn([C@H](C)c3nnc4c(F)cc(-c5cnn(C)c5)cn34)c(=O)c2c1 |  | patients, plasma | oral, 50 mg once daily, day 28 24 h postdose |  | Ctrough | 50 ng/mL |
| CCN(Cc1ccc(F)cc1)c1ccc(CO)c(Cl)c1 |  | F344 rat, male, serum | oral, 100 mg/kg/day, 2 days |  | GGT | 4 U/L and 3 U/L and 0 U/L |
| O=C(COc1ccc(Cl)cc1)NC12CC(c3nnc([C@H]4C[C@@H](OC(F)(F)F)C4)o3)(C1)C2 |  | human both sexes | oral, 45 mg once daily, 14 days |  | participants with headache | 66.7% |
| COc1ccnc(C(N)=O)c1O | soil adsorption | clay loam soil | pH 7.2, organic carbon 4.4 % |  | Freundlich coefficient KF | 17.4 mL/g |
